Experimental data of several laboratories.
Each line is one published result; not all experiments were run side by side. Values joined by “and” are separate records of one study, mostly repeats; a detail may differ. Numbers after ± are the reported error.

SMILES | test | test system | conditions | scale | measurement | result
OCC(O)CO | ELISA | Mus musculus female wild type, serum | drinking water, 5% w/v, 2 days | – | FGF21 level | 464 pg/mL and 2470 pg/mL and 400 pg/mL and 404 pg/mL and 195 pg/mL and 205 pg/mL
NCC(=O)Nc1cncc(-c2nn3c(=O)cc(N4CCNCC4)nc3s2)c1 | ADP-induced platelet aggregation, light transmission aggregometry | human, stable CAD on aspirin, ex vivo platelets | subcutaneous, 0.05 mg/kg, 15 min post-dose, median value, together with: ADP 20 µM | – | inhibition | 77.1%
C[C@@H](NC(=O)N1C(=O)[C@H](Cc2ccnc(N)c2)[C@H]1C(=O)O)C1CCCCC1 | – | human, plasma | continuous intravenous infusion, 1.5 mg/kg/h, days 1 to 6 of 5-day infusion, median | baseline: baseline | time to maximum PT over baseline | 28 h
Cc1cc(Nc2cc3ncccc3c(N[C@@H]3C[C@H]4CC[C@@H](C3)N4CCC#N)n2)n[nH]1 | – | moderate-severe ulcerative colitis patients | 80 mg, day 28, unit not given | baseline: baseline | change in total Mayo | -1.6
O=C(O)CNC(=O)Cc1ccccc1 | – | ventricular cardiomyocytes, C57BL/6 mouse | dose not given, 0.612 s | – | sarcomere length | 1.68 µm
Cc1cc(-c2nnc(N)nc2-c2ccc(F)cc2)cc(Cl)n1 | NanoString, measured: NKT.Medi.IO signature | human mCRPC, peripheral blood | dose not given, 2 or 4 weeks | baseline: baseline, direction not given | GSVA score change | -0.185
CCCOc1ccc(-c2ccc(C#N)cc2)cc1 | proteomics | rat placenta | 5 µg/mL, high dose | baseline: control | number of downregulated proteins | 213
C[C@H](Oc1ccc(Br)cc1-c1ccon1)C(=O)O | first response peak | human, tibialis anterior muscle | 400 mg, 30 Hz, single ascending dose | – | difference from placebo | 11%
C[C@@H]1COCCN1c1cc([C@]2(O)C[C@H]3CC[C@@H](C2)O3)c2cnn(-c3cc[nH]n3)c2n1 | – | mice, Granta-519 xenograft | 25 mg/kg once daily for 5 days, day 14 | – | tumour growth inhibition | 84.6 ± 0.97%
N#Cc1ccn2c(-c3ccncc3)c(-c3ccc(F)cc3)nc2c1 | kinase binding, competitor, MIB/MS competition, measured: KIN3 | Candida albicans cell lysate | 1 µM | baseline: DMSO | log2 fold change | 0.0486
CCCN1CCCC[C@H]1C(=O)Nc1c(C)cccc1C | – | Sprague-Dawley rat, male | intrathecal, 30 µL, 15 mM | – | motor block | 100 % MPE
CC(C)NCC(O)c1ccc(O)c(O)c1 (centres unmarked) | – | ventricular cardiomyocytes, C57BL/6 mouse | dose not given, 0 s | – | sarcomere length | 1.72 µm
OC(CCN1CCCCC1)(c1ccccc1)C1CC2C=CC1C2 (centres unmarked) | resting-state EEG | healthy elderly humans | oral, 2 mg, eyes open, LS mean | baseline: baseline | change, theta power, EEG O1-Pz | 9.5%
O=C(O)CSc1nnc(Br)n1-c1ccc(C2CC2)c2ccccc12 | – | mouse, acute hyperuricaemia model | 1 mg/kg | – | decrease in serum uric acid | 10.8%
Cc1c(C)n(Cc2cccc(OC(C)(C)C(=O)O)c2)c2ccc(C(=O)N[C@@H](C)c3ccc(C(C)(C)C)cc3)cc12 | indirect calorimetry | lean mice | dose not given, average over 72 h, end of treatment | – | locomotor activity | 1050 ± 585 counts/20 min
Cc1oncc1C(=O)Nc1ccc(C(F)(F)F)cc1 | measured: dihydroorotate | female CD-1 mice, pooled urine | oral, 10 mg/kg daily, 8-24 h after dose 1, 10-day dosing | – | DHO concentration | 297 ± 17.2 µM
O=C(OC(C(F)(F)F)C(F)(F)F)N1CCN(Cc2cccc(Oc3ccccc3)c2)CC1 | PET blocking study | rhesus monkey, brain THA | 0.3 mg/kg, compound pretreatment, together with: [18F]T-401 tracer | – | k4 | 0.591 min⁻¹
COc1cc(/C=C/C(=O)CC(=O)/C=C/c2ccc(O)c(OC)c2)ccc1O | – | rat, high-fat diet hyperlipaemia | oral, 200 mg/kg daily, 4 weeks | – | relative epididymal fat weight | 47.5 ± 7.2 mg/g body weight
CC[C@@H]1[C@H](F)C(=O)N[C@@H]1COc1nccc2cc(C(N)=O)c(OC)cc12 | ATP-site probe binding, ActivX profiling, measured: MAP3K2, MAP3K3 | THP-1 cell lysate | 0.01 mM, Lys2 site | – | inhibition | 8.7%
NC(=O)c1cnc2[nH]ccc2c1N[C@@H]1[C@@H]2CC3C[C@H]1C[C@@](O)(C3)C2 | flow cytometry | Japanese healthy men, blood | oral, 10 mg twice daily, 72 h after day 7 dose | baseline: baseline | CD4+ naive T-cell change | -4.38%
N#Cc1ccc2c(c1)[C@H]1CCCN(C(=O)c3ccc4[nH]cnc4c3)[C@H]1C2 | measured: FPG | human, Phase II trial | oral, 240 mg once daily, day 28, adjusted mean, SE | – | change from baseline | 6.1 mg/dL
CCN(Cc1nc2c(N)nc3cc(-c4cc[nH]n4)ccc3c2[nH]1)C(C)=O | immunohistochemistry, measured: PD-L1+ immune cells | patients with advanced solid tumours, injected tumour lesions | dose not given, monotherapy | – | patients with increased cells | 50%

SMILES | test | test system | conditions | scale | measurement | result
CN[C@@H](C)C(=O)N[C@H]1CN(S(=O)(=O)c2cccc(S(=O)(=O)N3CC[C@H]4CC[C@@H](C(=O)NC(c5ccccc5)c5ccccc5)N4C(=O)[C@@H](NC(=O)[C@H](C)NC)C3)c2)CC[C@H]2CC[C@@H](C(=O)NC(c3ccccc3)c3ccccc3)N2C1=O | – | mouse pancreatic cancer PDX models | dose not given, compound added | – | models with enhanced antitumour effect | 50%
C[C@H]1O[C@@H](O[C@H]2CC[C@@]3(C)[C@@H](CC[C@]4(C)[C@@H]3C=C[C@]35OC[C@@]6(CCC(C)(C)C[C@H]63)[C@@H](O)C[C@]54C)[C@]2(C)CO)[C@H](O)[C@@H](O[C@@H]2O[C@H](CO)[C@@H](O)[C@H](O)[C@H]2O)[C@H]1O | Western blot, measured: P-mtor | chronic-plus-binge ethanol-fed mice, liver | dose not given, low dose, unit not given | baseline: β-actin | protein level | 0.799 and 0.791 and 0.621
CC(C)(C)C1CCc2c(sc(NC(=O)c3ccco3)c2C(=O)O)C1 (centres unmarked) | hot plate test | ICR mouse | intragastric, 40 mg/kg, 3 h | baseline: vehicle | pain response latency | no effect
C[C@H](NC(=O)c1c(C(F)F)nn(C)c1Oc1cccc(C(F)(F)F)c1)c1ccc(C(=O)O)cc1 | – | human, advanced tumours | 250 mg, irRECIST | – | progressive disease | 37.5%
Cc1n[nH]c2ccc(-c3cc(OC[C@@H](N)Cc4ccccc4)cnc3-c3ccoc3)cc12 | kinase binding, competitor, MIB/MS competition, measured: RCK2 | Candida albicans cell lysate | 10 µM | baseline: DMSO | log2 fold change | -0.886
COc1ccc(F)cc1C(=O)NCc1ccc(-c2nn([C@@H](C)C(F)(F)F)c(N)c2C(N)=O)cc1 | – | B-cell malignancy patients | dose not given, at data cutoff | – | patients remaining on treatment | 73%
CC(=O)Oc1cc2c(s1)CCN(C(C(=O)C1CC1)c1ccccc1F)C2 (centres unmarked) | platelet aggregation, light transmittance aggregometry | human, platelet-rich plasma | dose not given, 30 min, IPA above 90 %, together with: TRAP 5 µM | baseline: patients | patients with IPA above threshold | 0%
C[C@H]1C[C@H]2CSC(N)=N[C@@]2(c2nc(NC(=O)c3ccc(OC(F)F)cn3)cs2)CO1 | measured: Aβx-40 | healthy adults, plasma | 125 mg once daily, day 1 | baseline: placebo | percent change from baseline | -69.1%
O=C(O)/C=C/c1ccc(O)c(O)c1 | – | C57BL/6 mouse, myocardial ischaemia-reperfusion, serum | 45 mg/kg | – | SOD level | increased
CCN1CCN(Cc2ccc(Nc3ncc(F)c(-c4cc(F)c5nc6n(c5c4)[C@H](C)CCC6)n3)nc2)CC1 | – | human advanced solid tumours | 400 mg, phase Ia monotherapy RECIST 1.1 | – | partial response | 0%
CC(C)[C@H](C(=O)Nc1ccc(C(=O)NO)cc1)c1ccccc1 | volumetric MRI | human, right vagal schwannoma | dose not given, day 359 | – | tumour volume | 7.8 cm3
CCc1c(C)nc(-c2ccc(Cl)s2)nc1Nc1ccc(CC(=O)O)cc1 | – | C57BL/6J mouse, MCD diet MASH model, liver | intraperitoneal, 0.3 mg/kg daily, MCD diet 6 weeks, dosed final two weeks | baseline: untreated | PDE4B expression | decreased
N#Cc1ccc2c(-c3ccncc3)c(-c3ccc(F)cc3)nn2c1 | kinase binding, competitor, MIB/MS competition, measured: CTK1 | Candida albicans cell lysate | 100 nM | baseline: DMSO | log2 fold change | -0.582
O=C(NC[C@H]1CN(c2ccc(N3CCOCC3=O)cc2)C(=O)O1)c1ccc(Cl)s1 | – | human mild renal impairment, plasma | 10 mg, mean, unit not given | baseline: baseline | prothrombin time AUC(0-48h) | 95.8
N#Cc1ccc2c(c1)[C@H]1CCCN(C(=O)c3ccc4[nH]cnc4c3)[C@H]1C2 | – | human, plasma | 40 mg, day 15, 360 h | baseline: placebo and baseline | change in fasting glucose | -1.1%
CC[C@H](C)[C@H](NC(=O)[C@H](C)NC(=O)CNC(=O)[C@H](Cc1ccccc1)NC(=O)[C@H](CC(N)=O)NC(=O)[C@H](CC(N)=O)NC(=O)[C@H](CO)NC(=O)[C@H](CO)NC(=O)[C@H](Cc1c[nH]cn1)NC(=O)[C@@H](NC(=O)[C@H](CC(C)C)NC(=O)[C@H](Cc1ccccc1)NC(=O)[C@H](CC(N)=O)NC(=O)[C@H](C)NC(=O)[C@H](CC(C)C)NC(=O)[C@H](CCCNC(=N)N)NC(=O)[C@H](CCC(N)=O)NC(=O)[C@@H](NC(=O)[C@H](C)NC(=O)[C@@H]1CSSC[C@H](NC(=O)[C@@H](N)CCCCN)C(=O)N[C@@H](CC(N)=O)C(=O)N[C@@H]([C@@H](C)O)C(=O)N[C@@H](C)C(=O)N[C@@H]([C@@H](C)O)C(=O)N1)[C@@H](C)O)C(C)C)C(=O)N[C@@H](CC(C)C)C(=O)N[C@@H](CO)C(=O)N[C@@H](CO)C(=O)N[C@H](C(=O)N[C@@H](CC(N)=O)C(=O)N[C@H](C(=O)NCC(=O)N[C@@H](CO)C(=O)N[C@@H](CC(N)=O)C(=O)N[C@H](C(=O)N[C@@H](Cc1ccc(O)cc1)C(N)=O)[C@@H](C)O)C(C)C)[C@@H](C)O | live/dead staining | isolated mouse islets | 10 µM, 24 h | – | viability | 61%
N=C(N)NCCC[C@@H](NC(=O)CCOCCOCCNC(=O)[C@H](CCCCNC(=O)CC[C@H](NC(=O)c1ccc(NCc2cnc3nc(N)[nH]c(=O)c3n2)cc1)C(=O)O)NC(=O)CO/N=C/[C@H](F)[C@@H](O)[C@H](O)[C@H](O)CO)C(=O)NCC(=O)N[C@H](CC(=O)O)C(N)=O [fluorine-18 labelled] | – | nude mice, MDA-MB-231 xenograft, tumour | 2.5 h, together with: unlabelled RGD 200 µg | – | tumour uptake | 0.95 ± 0.27 %ID/g
C=CC[C@@H]1/C=C(\C)C[C@H](C)C[C@H](OC)[C@H]2O[C@@](O)(C(=O)C(=O)N3CCCC[C@H]3C(=O)O[C@H](/C(C)=C/[C@@H]3CC[C@@H](O)[C@H](OC)C3)[C@H](C)[C@@H](O)CC1=O)[C@H](C)C[C@@H]2OC | – | rhesus monkey kidney transplant | – | – | day of graft harvest | 100 days
O=C(COc1ccc(Cl)cc1)NC12CC(c3nnc([C@H]4C[C@@H](OC(F)(F)F)C4)o3)(C1)C2 | – | healthy human, PBMC | oral, 15 mg single dose, day 2, 24 h post-dose, median, together with: sodium arsenite ex vivo | baseline: baseline | CHAC1 mRNA change | 6.44%
N#CC[C@H](C1CCCC1)n1cc(-c2ncnc3[nH]ccc23)cn1 | phosphoflow cytometry, measured: pS6 | patient plasma | concentration not given | – | peak inhibition range | 0.9 to 85.8%
C[C@@H](O)CCOC(=O)C[C@@H](C)O | – | human | oral drink, dose not given, 120 min post dose, median, all participants | – | plasma glucagon | 21 pM
C[C@]12CC[C@@H]3c4ccc(O)cc4C[C@@H](CCCCCCCCC[S+]([O-])CCCC(F)(F)C(F)(F)F)[C@H]3[C@@H]1CC[C@@H]2O (some centres unmarked) | – | female nude mouse LCC2 xenograft | 2.0 mg/kg, day 15, tamoxifen-resistant | – | tumour volume | 124 mm3 and 148 mm3 and 81.2 mm3 and 144 mm3 and 112 mm3 and 98.2 mm3 and 141 mm3

Some of these lines once more:
SMILES | test | test system | conditions | scale | measurement | result
Cc1cc(-c2nnc(N)nc2-c2ccc(F)cc2)cc(Cl)n1 | NanoString, measured: NKT.Medi.IO signature | human mCRPC, peripheral blood | dose not given, 2 or 4 weeks | baseline: baseline, direction not given | GSVA score change | -0.185
CCCOc1ccc(-c2ccc(C#N)cc2)cc1 | proteomics | rat placenta | 5 µg/mL, high dose | baseline: control | number of downregulated proteins | 213
C[C@H](Oc1ccc(Br)cc1-c1ccon1)C(=O)O | first response peak | human, tibialis anterior muscle | 400 mg, 30 Hz, single ascending dose | – | difference from placebo | 11%
C[C@@H]1COCCN1c1cc([C@]2(O)C[C@H]3CC[C@@H](C2)O3)c2cnn(-c3cc[nH]n3)c2n1 | – | mice, Granta-519 xenograft | 25 mg/kg once daily for 5 days, day 14 | – | tumour growth inhibition | 84.6 ± 0.97%
N#Cc1ccn2c(-c3ccncc3)c(-c3ccc(F)cc3)nc2c1 | kinase binding, competitor, MIB/MS competition, measured: KIN3 | Candida albicans cell lysate | 1 µM | baseline: DMSO | log2 fold change | 0.0486
CCCN1CCCC[C@H]1C(=O)Nc1c(C)cccc1C | – | Sprague-Dawley rat, male | intrathecal, 30 µL, 15 mM | – | motor block | 100 % MPE
